Assay results from different studies.
Numbered parts are unrelated; each lists some results of a single study.
Sequence of UniProt Q15349 (whole entry, looked up): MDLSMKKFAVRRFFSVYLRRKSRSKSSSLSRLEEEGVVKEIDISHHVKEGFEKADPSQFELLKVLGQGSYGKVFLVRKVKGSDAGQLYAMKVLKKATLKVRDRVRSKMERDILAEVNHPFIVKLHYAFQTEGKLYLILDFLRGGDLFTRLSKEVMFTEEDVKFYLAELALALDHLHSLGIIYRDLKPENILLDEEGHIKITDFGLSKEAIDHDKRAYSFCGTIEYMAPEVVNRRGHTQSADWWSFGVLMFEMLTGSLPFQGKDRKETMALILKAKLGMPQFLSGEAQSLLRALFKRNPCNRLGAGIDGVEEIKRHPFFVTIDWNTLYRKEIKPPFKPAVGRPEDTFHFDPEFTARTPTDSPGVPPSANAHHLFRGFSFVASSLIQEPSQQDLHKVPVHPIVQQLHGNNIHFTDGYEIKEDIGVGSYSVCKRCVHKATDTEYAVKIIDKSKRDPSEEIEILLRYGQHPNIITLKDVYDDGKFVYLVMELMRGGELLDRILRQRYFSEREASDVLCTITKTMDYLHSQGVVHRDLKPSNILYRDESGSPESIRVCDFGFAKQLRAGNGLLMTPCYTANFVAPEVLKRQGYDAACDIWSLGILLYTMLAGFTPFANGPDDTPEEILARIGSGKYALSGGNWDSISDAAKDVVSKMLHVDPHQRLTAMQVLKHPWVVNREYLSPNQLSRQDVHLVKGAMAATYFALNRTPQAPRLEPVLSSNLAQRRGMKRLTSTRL
Sequence of UniProt Q86UE8 (whole entry, looked up): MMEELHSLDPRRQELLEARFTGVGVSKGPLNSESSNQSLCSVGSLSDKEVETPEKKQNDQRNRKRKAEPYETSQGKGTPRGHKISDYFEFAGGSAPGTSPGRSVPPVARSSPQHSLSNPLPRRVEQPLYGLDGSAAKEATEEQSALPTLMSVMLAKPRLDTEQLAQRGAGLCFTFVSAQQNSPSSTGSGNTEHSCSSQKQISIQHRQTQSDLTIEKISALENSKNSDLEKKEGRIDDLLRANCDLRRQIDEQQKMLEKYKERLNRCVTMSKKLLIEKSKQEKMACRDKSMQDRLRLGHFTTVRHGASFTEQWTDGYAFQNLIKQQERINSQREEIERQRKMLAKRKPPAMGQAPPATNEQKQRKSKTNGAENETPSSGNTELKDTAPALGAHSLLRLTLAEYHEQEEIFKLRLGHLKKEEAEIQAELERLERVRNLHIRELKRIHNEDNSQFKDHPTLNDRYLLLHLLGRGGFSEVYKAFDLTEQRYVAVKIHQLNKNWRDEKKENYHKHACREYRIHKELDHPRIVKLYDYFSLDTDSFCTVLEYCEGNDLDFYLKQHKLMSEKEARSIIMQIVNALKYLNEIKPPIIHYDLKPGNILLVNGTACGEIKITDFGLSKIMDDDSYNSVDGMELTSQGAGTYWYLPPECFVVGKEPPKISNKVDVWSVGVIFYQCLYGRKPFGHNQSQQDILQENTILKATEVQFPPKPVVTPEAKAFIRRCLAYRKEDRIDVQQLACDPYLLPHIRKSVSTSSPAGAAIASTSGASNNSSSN
Sequence of UniProt Q99720 (whole entry, looked up): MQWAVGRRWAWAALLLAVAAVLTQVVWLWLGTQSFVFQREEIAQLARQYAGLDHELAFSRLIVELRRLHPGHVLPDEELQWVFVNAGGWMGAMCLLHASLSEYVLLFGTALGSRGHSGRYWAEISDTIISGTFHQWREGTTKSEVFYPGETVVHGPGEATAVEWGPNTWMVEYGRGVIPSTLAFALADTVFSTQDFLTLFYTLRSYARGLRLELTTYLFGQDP
Sequence of UniProt P25100 (whole entry, looked up): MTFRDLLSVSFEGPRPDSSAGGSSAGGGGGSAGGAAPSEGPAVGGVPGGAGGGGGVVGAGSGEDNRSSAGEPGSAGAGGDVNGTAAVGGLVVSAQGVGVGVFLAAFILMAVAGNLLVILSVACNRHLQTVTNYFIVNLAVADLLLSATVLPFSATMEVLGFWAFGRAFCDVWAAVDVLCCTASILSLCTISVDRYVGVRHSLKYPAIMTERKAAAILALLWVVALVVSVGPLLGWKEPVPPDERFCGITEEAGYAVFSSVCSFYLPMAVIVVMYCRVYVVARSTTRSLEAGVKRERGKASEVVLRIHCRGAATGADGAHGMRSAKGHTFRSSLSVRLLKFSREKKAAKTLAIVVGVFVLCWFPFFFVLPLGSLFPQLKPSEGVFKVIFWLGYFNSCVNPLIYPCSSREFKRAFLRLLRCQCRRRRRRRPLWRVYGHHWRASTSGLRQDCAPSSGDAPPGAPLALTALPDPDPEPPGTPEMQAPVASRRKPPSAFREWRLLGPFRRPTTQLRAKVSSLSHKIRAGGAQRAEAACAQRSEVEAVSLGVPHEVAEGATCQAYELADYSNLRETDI
Sequence of UniProt Q5BJF2 (whole entry, looked up): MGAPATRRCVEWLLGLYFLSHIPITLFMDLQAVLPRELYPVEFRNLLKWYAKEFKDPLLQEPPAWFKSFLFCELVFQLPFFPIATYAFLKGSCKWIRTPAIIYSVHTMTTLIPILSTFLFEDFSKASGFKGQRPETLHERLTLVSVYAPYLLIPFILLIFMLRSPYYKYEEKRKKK
Sequence of UniProt P0C1S8 (whole entry, looked up): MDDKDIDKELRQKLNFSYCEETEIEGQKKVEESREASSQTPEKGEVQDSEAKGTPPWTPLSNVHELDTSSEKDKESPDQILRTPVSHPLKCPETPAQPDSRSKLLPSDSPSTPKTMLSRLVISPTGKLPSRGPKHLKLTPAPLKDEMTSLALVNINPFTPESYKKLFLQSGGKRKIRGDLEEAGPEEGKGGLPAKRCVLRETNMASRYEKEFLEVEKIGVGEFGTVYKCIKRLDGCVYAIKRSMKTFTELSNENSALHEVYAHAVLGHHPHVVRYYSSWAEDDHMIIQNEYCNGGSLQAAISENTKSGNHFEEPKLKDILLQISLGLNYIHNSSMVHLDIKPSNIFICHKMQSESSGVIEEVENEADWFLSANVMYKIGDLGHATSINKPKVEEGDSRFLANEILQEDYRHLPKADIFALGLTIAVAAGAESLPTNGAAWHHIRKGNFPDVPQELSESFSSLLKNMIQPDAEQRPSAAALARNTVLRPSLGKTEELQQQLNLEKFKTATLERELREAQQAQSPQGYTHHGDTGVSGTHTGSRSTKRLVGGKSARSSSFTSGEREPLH
Sequence of UniProt Q8NG66 (whole entry, looked up): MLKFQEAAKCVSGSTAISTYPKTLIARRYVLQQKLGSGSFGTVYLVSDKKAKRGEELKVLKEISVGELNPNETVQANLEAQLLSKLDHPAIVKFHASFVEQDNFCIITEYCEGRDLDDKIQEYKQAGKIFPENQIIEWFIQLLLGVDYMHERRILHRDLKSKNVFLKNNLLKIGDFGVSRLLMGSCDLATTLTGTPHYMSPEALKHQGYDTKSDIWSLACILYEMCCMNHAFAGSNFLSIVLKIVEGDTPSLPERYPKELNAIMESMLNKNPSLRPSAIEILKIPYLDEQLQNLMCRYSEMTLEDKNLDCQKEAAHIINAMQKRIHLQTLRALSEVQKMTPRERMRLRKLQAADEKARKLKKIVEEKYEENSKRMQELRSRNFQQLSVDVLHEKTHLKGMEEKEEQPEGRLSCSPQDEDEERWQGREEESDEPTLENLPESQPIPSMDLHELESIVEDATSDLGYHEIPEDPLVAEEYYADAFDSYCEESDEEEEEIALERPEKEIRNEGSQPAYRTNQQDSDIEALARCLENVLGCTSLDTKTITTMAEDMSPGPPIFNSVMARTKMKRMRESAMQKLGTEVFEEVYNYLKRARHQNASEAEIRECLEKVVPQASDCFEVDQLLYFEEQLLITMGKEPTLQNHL
Sequence of UniProt P07949 (whole entry, unmodified, looked up): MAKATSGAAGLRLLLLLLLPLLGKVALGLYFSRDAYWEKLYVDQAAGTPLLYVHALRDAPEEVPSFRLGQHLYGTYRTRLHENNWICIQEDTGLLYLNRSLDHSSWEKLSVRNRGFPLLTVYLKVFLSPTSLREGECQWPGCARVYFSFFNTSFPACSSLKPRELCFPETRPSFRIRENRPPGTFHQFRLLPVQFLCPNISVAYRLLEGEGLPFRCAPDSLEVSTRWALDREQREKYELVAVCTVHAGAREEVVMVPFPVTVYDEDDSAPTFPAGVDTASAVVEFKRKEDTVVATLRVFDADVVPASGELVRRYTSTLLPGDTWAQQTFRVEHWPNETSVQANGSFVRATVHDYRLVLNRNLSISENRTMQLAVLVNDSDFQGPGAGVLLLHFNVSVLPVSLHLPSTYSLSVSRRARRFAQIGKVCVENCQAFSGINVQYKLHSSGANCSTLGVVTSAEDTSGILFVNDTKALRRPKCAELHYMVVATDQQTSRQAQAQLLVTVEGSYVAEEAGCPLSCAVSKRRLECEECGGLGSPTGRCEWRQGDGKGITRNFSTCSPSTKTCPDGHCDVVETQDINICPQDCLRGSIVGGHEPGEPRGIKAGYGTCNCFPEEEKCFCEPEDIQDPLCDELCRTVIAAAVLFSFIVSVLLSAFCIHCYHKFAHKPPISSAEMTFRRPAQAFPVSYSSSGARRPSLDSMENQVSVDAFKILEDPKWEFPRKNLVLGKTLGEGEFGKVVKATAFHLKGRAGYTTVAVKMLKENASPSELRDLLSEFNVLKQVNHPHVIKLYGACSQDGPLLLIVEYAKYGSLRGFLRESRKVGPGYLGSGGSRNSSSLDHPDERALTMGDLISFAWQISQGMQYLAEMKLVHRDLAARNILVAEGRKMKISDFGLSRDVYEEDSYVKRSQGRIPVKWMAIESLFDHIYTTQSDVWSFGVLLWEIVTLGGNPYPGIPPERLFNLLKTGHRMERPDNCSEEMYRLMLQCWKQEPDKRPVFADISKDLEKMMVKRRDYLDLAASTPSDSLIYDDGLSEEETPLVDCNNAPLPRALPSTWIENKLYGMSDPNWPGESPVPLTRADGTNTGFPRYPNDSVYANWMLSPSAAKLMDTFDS

Study 1
SMILES: CO[C@@H](C)c1c(Nc2ccc([C@H](N(C)C(=O)C3CCS(=O)(=O)CC3)C(F)(F)F)cc2)cnc2cc(Cl)nn12
Read-out: ligand displacement
Tested at: 10 µM
Quantity: inhibition
target = D(4) dopamine receptor (DRD4, Homo sapiens, UniProt P21917); result = -10.4%
target = 5-hydroxytryptamine receptor 6 (HTR6, Homo sapiens, UniProt P50406); result = -23.5%
target = 5-hydroxytryptamine receptor 7 (HTR7, Homo sapiens, UniProt P34969); result = -18.2%
target = Histamine H1 receptor (HRH1, Homo sapiens, UniProt P35367); result = 10.2%
target = Alpha-1D adrenergic receptor (ADRA1D, Homo sapiens, UniProt P25100); result = -6.69%
target = Histamine H4 receptor (HRH4, Homo sapiens, UniProt Q9H3N8); result = 3.84%
target = Alpha-2A adrenergic receptor (ADRA2A, Homo sapiens, UniProt P08913); result = 14.6%
target = Muscarinic acetylcholine receptor M2 (CHRM2, Homo sapiens, UniProt P08172); result = -11.6%
target = Sigma non-opioid intracellular receptor 1 (SIGMAR1, Homo sapiens, UniProt Q99720); result = 18.8%
target = Alpha-2C adrenergic receptor (ADRA2C, Homo sapiens, UniProt P18825); result = 4.48%
target = Alpha-1B adrenergic receptor (ADRA1B, Homo sapiens, UniProt P35368); result = 27.6%
target = Sigma intracellular receptor 2 (TMEM97, Homo sapiens, UniProt Q5BJF2); result = 49.1%

Study 2
Host: human
Medium: microsomes or S9
Tested at: 2 µM
Time: 0.5 h
Quantity: remaining compound
Structure (SMILES) = Nc1[nH]nc(-c2ccc(Br)s2)c1-c1ccc2c(c1)OCO2; result = 74.3%
Structure (SMILES) = Cc1noc(C23CC(CN2C(=O)Nc2cc(C)c4cn[nH]c4c2)C3)n1; result = 91.5%
Structure (SMILES) = CCOc1ccc(OCC)c(NC(=O)c2cc3sc(Cl)cc3n2CC)c1; result = > 99%
Structure (SMILES) = N#Cc1ccc(C(=O)OC2c3ccccc3-c3ccccc32)[nH]1; result = 3.68%
Structure (SMILES) = Cc1cn(S(=O)(=O)c2ccccc2)cc1C(=O)CC(C)C[N+](=O)[O-] (stereo not drawn); result = 22.8%
Structure (SMILES) = Clc1n[nH]c2c(CN(Cc3ccccc3)CC3CCCO3)cncc12 (stereo not drawn); result = 81.4%
Structure (SMILES) = Cc1cc(C(=O)Nc2ccc3ccccc3c2)no1; result = 48.8%
Structure (SMILES) = c1ccc(-c2nc(-c3ccc(-c4noc(-c5ccco5)n4)cc3)cs2)cc1; result = 18.1%
Structure (SMILES) = COCCN1C(=O)C(CC(=O)O)=C2CCCCC21 (stereo not drawn); result = 80.4%

Study 3
SMILES: C=CC(=O)N1CCC([C@@H]2CCNc3c(C(N)=O)c(-c4ccc(Oc5ccccc5)cc4)nn32)CC1
Read-out: enzyme activity
Action: inhibitor
Tested at: 1 µM
Quantity: inhibition
target = Serine/threonine-protein kinase Sgk1 (SGK1, Homo sapiens, UniProt O00141); result = 1%
target = Receptor-type tyrosine-protein kinase FLT3 (FLT3, Homo sapiens, UniProt P36888, D835H); result = 18%
target = Mitogen-activated protein kinase kinase kinase kinase 1 (MAP4K1, Homo sapiens, UniProt Q92918); result = 0%
target = Serine/threonine-protein kinase tousled-like 2 (TLK2, Homo sapiens, UniProt Q86UE8); result = 4%
target = Serine/threonine-protein kinase MARK1 (MARK1, Homo sapiens, UniProt Q9P0L2); result = 7%
target = Tyrosine-protein kinase Fer (FER, Homo sapiens, UniProt P16591); result = 0%
target = Proto-oncogene tyrosine-protein kinase receptor Ret (RET, Homo sapiens, UniProt P07949, V804M); result = 0%
target = Protein kinase C theta type (PRKCQ, Homo sapiens, UniProt Q04759); result = 0%

Study 4
SMILES: C[C@H]1CC[C@H](n2c3cnccc3c3cnc(Nc4ccc5c(n4)CCN(C(=O)CO)C5)nc32)CC1
Technique: competition with immobilised ligand
Tested at: 1 µM
Quantity: remaining binding
target = Serine/threonine-protein kinase Nek11 (NEK11, Homo sapiens, UniProt Q8NG66); test = binding; result = 100%
target = Activin receptor type-2A (ACVR2A, Homo sapiens, UniProt P27037); test = cell-free assay; result = 100%
target = Wee1-like protein kinase 2 (WEE2, Homo sapiens, UniProt P0C1S8); test = binding; result = 100%
target = Membrane-associated tyrosine- and threonine-specific cdc2-inhibitory kinase (PKMYT1, Homo sapiens, UniProt Q99640); test = binding; result = 98%
target = Wee1-like protein kinase (WEE1, Homo sapiens, UniProt P30291); test = binding; result = 100%
target = Ribosomal protein S6 kinase alpha-2, N-terminal kinase domain (RPS6KA2, Homo sapiens, UniProt Q15349); test = binding; result = 18%
target = AP2-associated protein kinase 1 (AAK1, Homo sapiens, UniProt Q2M2I8); test = binding; result = 31%

A few entries again (study 1):
target = D(4) dopamine receptor (DRD4, Homo sapiens, UniProt P21917); result = -10.4%
target = 5-hydroxytryptamine receptor 6 (HTR6, Homo sapiens, UniProt P50406); result = -23.5%
target = 5-hydroxytryptamine receptor 7 (HTR7, Homo sapiens, UniProt P34969); result = -18.2%
